Measurements of several laboratories.
Protocols differ between the studies behind these lines. pIC50: −log10 of the molar value.
Effect on: ABTS scavenging

S=C(NCc1ccccn1)NCc1ccccn1 — IC50: 400 µg/mL
COc1cc(/C=C/C(=O)CC(=O)/C=C/c2ccc(OC(=O)CCc3c[nH]c4ccccc34)c(OC)c2)ccc1OC(=O)CCc1c[nH]c2ccccc12 — pIC50: 3.54
c1coc(-c2nc3ccccc3[nH]2)c1 — pIC50 (absorbance): 5.85
O=C(/C=C/c1ccc(O)cc1)OC[C@H]1O[C@@H](Oc2cc(O)c3c(=O)cc(-c4ccc(O)cc4)oc3c2)[C@H](O)[C@@H](OC(=O)/C=C/c2ccc(O)cc2)[C@@H]1O — pIC50 (absorbance; 15 min): 4.44
COc1cc(/C=C/C(=O)NC(C)C(N)=O)ccc1OCc1ccccc1 (stereo not drawn) — pIC50: 4.20
O=c1c(O)c(-c2cc(O)ccc2O)oc2cc(O)cc(O)c12 — IC50: 65 µg/mL
O=C(/C=C/c1ccc(O)cc1)O[C@@H]1[C@@H](O)[C@H](Oc2cc(O)c3c(=O)cc(-c4ccc(O)cc4)oc3c2)O[C@H](CO)[C@H]1O — pIC50 (absorbance; 15 min): 4.44
O=C(O)/C=C/c1ccc(O)cc1 — IC50: 62 µg/mL
O=C(O)CCCC(=O)O — IC50: 74 µg/mL

Repeated from above:
c1coc(-c2nc3ccccc3[nH]2)c1 — pIC50 (absorbance): 5.85
